Published values from different studies.
Parts stem from different laboratories: compare values within a part only.

Study 1
Target: RNA binding protein fox-1 homolog 2, RRM domain, GST-SBP tag (RBFOX2, Homo sapiens, UniProt O43251-10, residues 100-194)
Method: RNA Bind-n-Seq
Form: RNA
Medium: in vitro
Concentration: 365 nM
Setting: natural RNA segment, single round, ends assumed
Baseline: no-protein control
Reading: higher = stronger binding
All sequences stand within: GGGAGUUCUACAGUCCGACGAUC … UGGAAUUCUCGGGUGCCAA
Residues (chain): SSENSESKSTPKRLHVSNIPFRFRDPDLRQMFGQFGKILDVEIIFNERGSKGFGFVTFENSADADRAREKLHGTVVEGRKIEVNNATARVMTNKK
Oligonucleotide | RBNS enrichment (R)
CCUCGCUGGGUCCAGCUGACUCUAGCGUCUGCACAGCCUUGUGUGACUCGUGGUGACCUAACCUGAGAAAGAGUGCAAUCAGAUGUUAAAGUAACUAAAUAGACUGCGGC | 0.277
UCGUGCCUCUUAGUGCCAAACCCACAGUGAGACCAAAAGUGUCAGGUGUUUUUUUUUUUUUCUUUCUCCUUUGCACUAAGUGCUUUGCAGACACGGCACAGCAAACAUUU | 0.896
UUUUGUGGUUACUACCUGGCUUGGCUGGCCUUGCGGUUCACCAGAUUAAUUUACAAACUCCCCCACUUUAUUUUGUGCUAUGUAGAUCUGGCCAUACUUGCAUUAGUGAC | 1.58
GGUGGCUCCGAGCAUGAGGUCCGCCUCCUGGGCGAGACCCAGCAGUGGACAGCAUGGUCCUCACACCCAGCUCCCUGCACACCCAGGCCAGCCACCCCUCCCGCUCGUGC | 0.446
CAGCUUACUGCAGCACUGUUGGUGUUCGGAGCUCUUCUGUGCCCUGGCUCCAUGCUUUCACCUACACAAGCAUCACCUUCCUAAUCACCGCGGGGCGGGGAGCGUGUGGC | 0.448
UCCCCGGUUCUGGAAAUCAUGUUCUCCUCACUCAUGGUGACAAGCUAAGAAAGCUGAACAAAGGGAGAGACGAGAGCGCCUGAAGCCAGGAGCUCCUUUACUAUCUUUCU | 0.243
AGCACUUCUUCUGGAUUUGAAUUCAAAUGUCAUUCUUAACAUUUCUGUUGAUGCUUCUUUGAAAAUCUUCGCUUGAUUUUGGCUGUAAAUCACCUACCCUGUUAAAUGCU | 0.282
AUGCACUUUAGAAUGUAAAAUAACAAUGACUAUUUUAAACUCGAAGACCCACUAUUUUGAGUAUUUUUUAUAGACUUUAAAUACUGGGUUUUUUUCCUCCUUCAAUCUCA | 0.749
CCCCAUAACCAAACAUAAGCUAGCUAGUCUUGUCUAAUAGAUGGGAUUUACUAUAGGUGAAGAUAGCCCUCAUAUUCAAGGACAGAAGCUCUGGCAGGAGUAAAUUAGCA | 20.4
UACUGACAGUUCAAAUGACUCUCCUUUUUUGUUCGUUAGUAACAAUCUUCAUUUGACACCUUAAUACAUUUCUGACUGUUCUUAAAACAGUGGGGAUGCCUAUAUUUUCC | 0.368
CCCCAUCUGGCAGCACAUGCCAAGUUUCAGGAGGAUUGGGGGGAGGCGGGUGCAGGCUUGAGAAGAAUCUGGGUGUGUGGGUAUGUGUGCACAUGUGCAUGUGGGUGUGU | 8.2
UUUCCGGGCGGCACUGUGAUGGGAGCUGGUGGCGACUGAGUCCUUCUGUACGUGCAACUGGGAAACUUUUGUCCUUUGAGGCUAGGCAGCUCCCUGCCCUCCGUGUGUGU | 0.855

Study 2
Target: Sal-like protein 4, full length isoform B (SALL4, Homo sapiens, UniProt Q9UJQ4-2, residues 1-616)
Method: universal PBM
Form: double-stranded DNA, one strand shown
Medium: in vitro
Concentration: not given
Setting: 8-mer, flanks averaged, mean of replicates
Reading: higher = stronger binding
Oligonucleotide | E-score
GGGTTGAC | -0.152
CCGCTGAG | -0.267
CCAGGCTA | -0.257
CGGCGTTA | -0.198
CCAGTCAG | -0.17
CTTGGGTC | -0.0538
ACGATGGA | 0.0155
GAGCAGTA | 0.00411
AAATTTTG | 0.294
ATTCGTCA | 0.0186
CGAGCTTC | -0.0961
TAGCGGGA | -0.14
CGATAGTC | 0.0951
AGGATGAG | -0.016
AAAATCTT | 0.284
AGACATGC | 0.0439
ACGCTTCC | -0.129
GAATTAAA | 0.18
GAATATTC | 0.279

Study 3
Target: Histone acetyltransferase KAT6A, winged helix 1, GST fusion (KAT6A, Homo sapiens, UniProt Q92794, residues 1-85)
Method: protein binding microarray
Form: double-stranded DNA, one strand shown
Medium: in vitro
Concentration: not given
Setting: 8-mer, flanks averaged, mean of 2 arrays, mostly near background
Baseline: not given
Reading: higher = stronger binding
Residues (chain): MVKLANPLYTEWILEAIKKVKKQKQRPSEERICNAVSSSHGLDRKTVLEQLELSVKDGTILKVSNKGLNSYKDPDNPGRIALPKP
Oligonucleotide | E-score
ATCACGGA | 0.176
TGGCAACA | -0.285
AAGAGCGC | 0.267
CGTTCCGC | 0.372
CGCTTCGA | 0.166
ACGCATGG | 0.207
AGAATCTG | -0.15
AGCCGCTC | 0.37
AGCATGCA | -0.153
ACGTTCCA | -0.0953
CGTGTATA | 0.165
ACTGTTAC | 0.0405
CACCCGTA | 0.303
GCCCATCC | -0.101
ATCTAACA | -0.191
CCAAGTAG | -0.245
AACGCATA | 0.0399

Study 4
Target: RING finger protein unkempt homolog, zinc fingers 1-6, GST-SBP tag (UNK, Homo sapiens, UniProt Q9C0B0, residues 30-357)
Method: RNA Bind-n-Seq
Form: RNA
Medium: in vitro
Concentration: not given
Setting: RNA with constant flanks, ends assumed
Baseline: input RNA pool
Reading: higher = stronger binding
All sequences stand within: GGGAGUUCUACAGUCCGACGAUC … CAACAGAGGAUUGAGCAUCA
Residues (chain): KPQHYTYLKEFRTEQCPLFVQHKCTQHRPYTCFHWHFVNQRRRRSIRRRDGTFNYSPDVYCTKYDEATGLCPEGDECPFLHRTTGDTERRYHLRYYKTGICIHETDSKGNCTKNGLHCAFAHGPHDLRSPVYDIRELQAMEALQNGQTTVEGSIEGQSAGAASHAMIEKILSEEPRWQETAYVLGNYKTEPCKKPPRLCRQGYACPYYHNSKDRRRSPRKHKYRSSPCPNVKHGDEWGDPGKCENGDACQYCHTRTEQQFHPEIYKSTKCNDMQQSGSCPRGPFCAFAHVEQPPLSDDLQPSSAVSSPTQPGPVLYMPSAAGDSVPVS
Oligonucleotide | bound/input enrichment
GAAGGUUUCUUUACCAACGGUUUGACUCUUGGAGCAAAGAAGUGUUCUGUGAUCAGAGACCGCCUAUACGUUGAUGGUGACUGCACAAUGGACAUCCGGACAAAGAGUCAAGGUGGGGAG | 0.194 ratio
CGGGAACUCAAACAUCUGAAUCAUCUUGAUAUCUCAGAUGAUAAACAGUUUACAUCAGACACCGCUCUUCGCUUACUAGAACAAAAAGACAUCCUACCUAACCUUGUUUCUCUGGAUGUU | 0.289 ratio
GAAAGAACUGUUCCAAGAAUAUUUGUCAAUGGUACUUUUAUUGGAGGUGCAACUGACACUCACCGGCUUCACAAAGAAGGAAAAUUGCUCCCACUAGUUCAUCAGUGUUAUUUAAAAAAA | 2.71 ratio
CAAAAGAAGAACAAGAUCCAUACUUUGGAGGACUUCCAGCGGGUUAUCAAUGUGAAUCUUACCGGCACUUUCAAUGUGAUCCGCCUGGUUGCUGGGGAGAUGGGCCAGAAUGAACCAGAC | 0.193 ratio
CUGAUCAUUGGAAAAGGAGGUGAAACCAUAAAAAGCAUAAGCCAACAGUCUGGUGCAAGAACCGAACUGCAGAGAAGCCCUCCACCUAAUGCAGAUCCCAAUAUGAAGUUAUUUACAAUU | 0.132 ratio
AGAAGGAACACCUUCCAAAUUUUGCUUCAAGCUCUGAAAAAAGGAGCACACAGGGGAACCUCCGUCUUGCUUGUGGAUCGAAGCAAAUACUAUCACAGCGAGGAACUGGGACUUUGUGUG | 0.0543 ratio
GGUGUUGCGAGUAUAGGAGGCAAAAUUGCACCCUGUUGAAAACCACCACCUUAGAUCAUCCCGGUUUUACUUUUAGGAUAAGACACUUGAGGGAAAGGCUGUGAAACUGAACCUCUGUUA | 0.272 ratio
ACCCUGCGGAGAAAGGGCAAUAUCAUUCUAAUCCCUGAAAGAAGCAACAGCCCCGAAAACACCCGAAAUAUCUUCUACAAAGGAACCUCCCCCACACGGGCUUAUAAGGAUUGAGUGAUG | 0.713 ratio
CAAAGGAACAAUGUGCAAUUGAUAUGUUUUUAGAUGAGAGAGAAAAAUUAAAGCUAAAAUCCGCUGCAAAGAAGUAUUAAUAAUCACCUCUGCAAAAAUUCUAAGUUGCCAACUGGCAAA | 0.817 ratio
AAGGCAACAGAUGAAACGGGUGUAUCUGCUGUUCAGUUUGGAAACUCUUCUACAUCAGUAUCCGCUACAUUAGCUGCCUUAGCUGAAGCAUCUGCUCCAUUGUCCAAUUCUUCAGAAACU | 0.0321 ratio
AAAGUGAUGACUAUGUUUGUCCAACGACAGGUAUUUUCGGAGAGCAAAGAUGAGAUUGCGUCCGUCCUCUAUGGCACAGAUGGCACUGAUAAUGCCCUUGCUGGCAAGGACCAGUAUCAG | 0.11 ratio

Repeated from above (study 2):
Oligonucleotide | E-score
TAGCGGGA | -0.14
CGATAGTC | 0.0951
AGGATGAG | -0.016
AAAATCTT | 0.284
